Measurements collected from several papers.
Target: Calcium/calmodulin-dependent protein kinase type 1 (CAMK1, Homo sapiens, UniProt Q14012)

SMILES = COc1c(Cl)cccc1Nc1c(-c2ccncc2C#C[C@@]2(C)CCCN2C(=O)/C=C/CN(C)C)[nH]c2c1C(=O)NCC2; test = cell-free assay, competition with immobilised ligand; setting = 3 µM; measurement = remaining binding; result = 95%
SMILES = C=CC(=O)Nc1cccc(-c2cnc3[nH]cc(C(=O)NC(C)(C)C)c3n2)c1; test = enzyme activity, inhibitor; setting = 0.1 µM; measurement = inhibition; result = 4%
SMILES = Cc1ccc(-c2c(/C=C(\C#N)C(=O)NC(C)C)n(CCCO)c3ncnc(N)c23)cc1; test = cell-free assay, competition with immobilised ligand; setting = 1 µM; measurement = remaining binding; result = 100%
SMILES = NC(=O)C[C@H]1CCc2sc3ncnc(O[C@H]4CC[C@H](N5CCOCC5)CC4)c3c21; test = enzyme activity, inhibitor; setting = 10 µM; measurement = inhibition; result = 5%
SMILES = Cc1cccc(-c2ccc3nc(NC(=O)C4CCCCC4)nn3c2)c1; test = enzyme activity, Dundee kinase panel; setting = 10 µM; measurement = remaining activity; result = 78%
SMILES = Cc1cccc(O[C@H]2CCC[C@@H](C(C)CNCc3ccncc3)C2)c1 (relative stereo); test = enzyme activity; setting = 1 µM; measurement = inhibition; result = 1%
SMILES = O=C(O)CCC(=O)c1cccc(NS(=O)(=O)c2c[nH]c3ncccc23)c1; test = kinase activity, radiometric; setting = 10 µM; measurement = remaining activity; result = 98%
SMILES = Cc1cccc(-c2ccc3nc(NC(=O)C4CCOCC4)nn3c2)c1; test = enzyme activity, Dundee kinase panel; setting = 10 µM; measurement = remaining activity; result = 83%
SMILES = CC(C)=CC1OC(C)(C)C2C=C3C(=O)C(Cl)=CC(O)C3C3C(O)C4OC4C(=O)C132 (stereo not shown); test = cell-free assay, competition with immobilised ligand; setting = 10 µM; measurement = remaining binding; result = 91%
SMILES = CCN1CCN(Cc2ccc(C(=O)Nc3ccc(C)c(NCc4cnc5[nH]ccc5c4OC)c3)cc2C(F)(F)F)CC1; test = binding, competition with immobilised ligand; setting = 1 µM; measurement = remaining binding; result = 95%
SMILES = C=CC(=O)N1Cc2nc(-c3cc(-c4cc(Cl)cnc4Cl)c(F)cc3F)n(-c3ccncn3)c2C1; test = cell-free assay; setting = 1 µM; measurement = inhibition; result = -0.3%
SMILES = COc1ccc(NC(=O)Nc2ccc3c(c2)C(=O)N(C(C)CO)CC(C)C(CN(C)Cc2ccc4c(c2)OCO4)O3)cc1 (stereo not shown); test = kinase activity, KinaseProfiler; setting = 0.03 µM, species human; how to read = baseline: control; measurement = remaining activity; result = 101%
SMILES = CCn1cc(C(=O)O)c(=O)c2c(N)c(F)c(NC3CCCCC3)cc21; test = kinase activity; setting = 0.1 µM, together with: ATP at Km; measurement = inhibition; result = -22%
SMILES = Cc1cnc2nc1Nc1cccc(c1)COC/C=C/COCc1cc(ccc1OCCN1CCOCC1)N2; test = binding; setting = 0.1 µM; measurement = remaining binding; result = 68%
SMILES = COc1cc(Nc2nccc(-c3cnn4nc(OC)ccc34)n2)cc(C(F)(F)F)c1; test = binding, competition with immobilised ligand; setting = 1 µM; measurement = remaining binding; result = 71%
SMILES = CNC1C[S+]2CC[S+]3CC[S+](C1)[Ru-4]321([N]=C=S)[n]2c3ccc(OC)cc3c3c4c(c5cc(F)c[n+]1c5c32)C(=O)NC4=O (stereo not shown); test = KinomeScan; setting = 0.1 µM; how to read = baseline: untreated; measurement = remaining binding; result = 93%
SMILES = Nc1ncc(-c2cc(-c3cnn(CC(F)(F)F)c3)ncc2F)nc1C(=O)NC1CNCC(F)C1 (stereo not shown); test = enzyme activity; setting = 1 µM; how to read = baseline: DMSO control; measurement = remaining activity; result = 74.5%
SMILES = CN1CCN(Cc2ccc(-c3ccc(CO[C@H]4CCC[C@@H]4NC(=O)c4cc(-c5cnn(C)c5)cnc4N)cc3)cc2)CC1; test = enzyme activity, inhibitor; setting = 0.1 µM; measurement = inhibition; result = -6%
SMILES = CN1CC[C@@H](COc2cnc(C#N)cc2-c2ccn3nc(NC(=O)C4CC4)cc3c2)C1; test = enzyme activity, inhibitor; setting = 1 µM; measurement = inhibition; result = 7%

Excerpt of the above:
SMILES = Cc1ccc(-c2c(/C=C(\C#N)C(=O)NC(C)C)n(CCCO)c3ncnc(N)c23)cc1; test = cell-free assay, competition with immobilised ligand; setting = 1 µM; measurement = remaining binding; result = 100%
SMILES = C=CC(=O)N1Cc2nc(-c3cc(-c4cc(Cl)cnc4Cl)c(F)cc3F)n(-c3ccncn3)c2C1; test = cell-free assay; setting = 1 µM; measurement = inhibition; result = -0.3%
